Experimental data of several laboratories.
Compare with care: the assays were run in different laboratories. “And” joins repeats or separate records; there may be more than shown. ± marks the error that the study gave.

O=C[C@H](O)CO — result for “z-scored log2 fold change”: -0.0352 (binding, equilibrium dialysis LC-MS; 5 µM, thermostabilized A2AR-BRIL construct; relative to: no-protein control, direction not given).
Under “EEG Beta2-power Pz-O1”, OC(CCN1CCCCC1)(c1ccccc1)C1CC2C=CC1C2 (stereo not drawn) is recorded as 0.9 µV² (resting-state EEG; healthy elderly humans; oral, 2 mg, eyes open, LS mean).
For O=C(O)Cc1ccc(O)cc1, “z-scored log2 fold change” read -0.184 (binding, equilibrium dialysis LC-MS; 5 µM, thermostabilized A2AR-BRIL construct; relative to: no-protein control, direction not given).
Under “best overall response PD”, Cc1cc(C)c(CNC(=O)c2cc(Cl)c3c(c2C)O[C@@](C)([C@H]2CC[C@H](N(C)C)CC2)O3)c(=O)[nH]1 is recorded as 23% (IWG 2007 criteria; human, relapsed/refractory angioimmunoblastic T-cell lymphoma; dose not given).
Nc1nc2nc[nH]c2c(=O)[nH]1 — result for “z-scored log2 fold change”: 0.46 (binding, equilibrium dialysis LC-MS; 5 µM, thermostabilized A2AR-BRIL construct; relative to: no-protein control, direction not given).
C[C@H]1C[C@H]2CSC(N)=N[C@@]2(c2nc(NC(=O)c3ccc(OC(F)F)cn3)cs2)CO1 — result for “percent change from baseline”: -65.8% (refers to: total Aβ; healthy adults, plasma; 275 mg once daily, day 4; relative to: placebo).
Under “z-scored log2 fold change”, CC(C)(CO)[C@@H](O)C(=O)NCCC(=O)O is recorded as 0.169 (binding, equilibrium dialysis LC-MS; 5 µM, thermostabilized A2AR-BRIL construct; relative to: no-protein control, direction not given).
N#Cc1ccn2c(-c3ccncc3)c(-c3ccc(F)cc3)nc2c1 — result for “log2 fold change”: -0.336 (kinase binding, competitor, MIB/MS competition, refers to: IRE1; Candida albicans cell lysate; 100 nM; relative to: DMSO).
COc1cc(O)c(CC=C(C)C)c(O)c1C(=O)/C=C/c1ccc(O)cc1: “hepatic and muscle lipid accumulation” “no effect” (male Tac:SW mice, conventional and germ-free; in high-fat diet, dose not given, 10 weeks; relative to: high-fat diet alone).
With C[C@H](CS)C(=O)N1CCC[C@H]1C(=O)O the writhing count was 59 and 52 and 67 and 55 and 51 and 62 (male ICR-CD1 mice; ip, 50 mg/kg, added: acetic acid 1%).
OCC(O)CO: “plasma FGF21 level” 222 pg/mL and 324 pg/mL and 990 pg/mL and 290 pg/mL and 287 pg/mL (ELISA; female Gpd2 knockout mice, serum; oral in drinking water, 5 % w/v, 2 days).
Cc1n[nH]c2ccc(-c3cc(OC[C@@H](N)Cc4ccccc4)cnc3-c3ccoc3)cc12: “log2 fold change” -0.123 (kinase binding, competitor, MIB/MS competition, refers to: ATG1; Candida albicans cell lysate; 100 nM; relative to: DMSO).
For O=C1Nc2cc3[nH]nc(-c4ccncc4)c3cc2CN1Cc1ccccc1, “stable disease, best response” read 11% (RECIST v1.1; human, relapsed or refractory advanced solid tumours; intravenous, 6.4 mg/kg).
With NC(=O)c1cnc2[nH]ccc2c1N[C@@H]1[C@@H]2CC3C[C@H]1C[C@@](O)(C3)C2 the percent change was -0.68% (CD4+ CD28+ naive T cells, flow cytometry; Caucasian humans, peripheral blood; 60 mg single dose; relative to: baseline).
For N#Cc1ccc2c(-c3ccncc3)c(-c3ccc(F)cc3)nn2c1, “log2 fold change” read -0.304 (kinase binding, competitor, MIB/MS competition, refers to: CDC7; Candida albicans cell lysate; 1 µM; relative to: DMSO).
CO[C@H]1CC[C@H](N2C(=O)CNc3ncc(-c4ccc(C(C)(C)O)nc4)nc32)CC1 — result for “pS6RP change from baseline”: -71.8% (flow cytometry; stimulated B cells, human, blood; 30 mg single dose, 3 h, mean; relative to: baseline).
CC(c1cc2ccccc2s1)N(O)C(N)=O (stereo not drawn) has a PGE2 level of 20 ± 7 pg/mL (human blood; 3 µM, added: A23187).
CN(C)C(=O)Oc1cccc([N+](C)(C)C)c1 gave a train-of-four ratio of 89 (neuromuscular block reversal; rat; dose not given, 12 (unit not given), added: cisatracurium; relative to: T1 twitch).
COC[C@@H](c1ccc(C(F)(F)F)cc1)N1CCN(C2(C)CCN(C(=O)c3c(C)ncnc3C)CC2)C[C@@H]1C — result for “change in HIV-1 RNA”: -2.05 log10 copies/mL (HIV-1 infected patients, plasma; dose not given, week 24, with optimized background regimen; relative to: baseline).
Under “CHAC1 mRNA change”, O=C(COc1ccc(Cl)cc1)NC12CC(c3nnc([C@H]4C[C@@H](OC(F)(F)F)C4)o3)(C1)C2 is recorded as -65.7% (healthy human, PBMC; 100 mg once daily, day 15, 24 h post-dose, median, added: sodium arsenite ex vivo; relative to: baseline).
Cn1cc(Nc2nccc(-c3ccc4c(c3)CN(C3COC3)CC[C@H]4NC(=O)c3cn(C(C)(C)C)nn3)n2)cn1: “pathway activation z-score” 1.34 (refers to: Chondroitin Sulfate Degradation; splenic B cells, mouse; in vivo, 30 mg/kg, IgD-activated B cells; relative to: vehicle, positive = activation).
c1ccc(-c2n[nH]cc2-c2ccnc3ccccc23)nc1 — result for “log2 fold change”: 0.0386 (kinase binding, competitor, MIB/MS competition, refers to: YCK2; Candida albicans cell lysate; 1 µM; relative to: DMSO).
The radical scavenging of O=C(O)c1ccc(O)cc1 is reported as 12.6 ± 1.38% (DPPH radical; 300 µg/mL).
For O=C(O)CC[C@H](O)C(=O)O, “z-scored log2 fold change” read 0.267 (binding, equilibrium dialysis LC-MS; 5 µM, thermostabilized A2AR-BRIL construct; relative to: no-protein control, direction not given).
C=CCn1c(=O)c2cnc(Nc3ccc(N4CCN(C)CC4)cc3)nc2n1-c1ccc2c(n1)[C@@](O)(CC)CC2: “tumour growth inhibition” 37.5% (SK-MES-1 xenograft, BALB/c nude mice; oral, 80 mg/kg once daily x 22, day 21; relative to: vehicle).
For N[C@@H](CC(=O)N1CCn2c(nnc2C(F)(F)F)C1)Cc1cc(F)c(F)cc1F, the hsCRP was 2.3 mg/L (refers to: C-reactive protein; type 2 diabetes patients on metformin, plasma; oral, 100 mg once daily, 28 weeks).
Under “objective response rate”, CCN1CCN(Cc2ccc(Nc3ncc(F)c(-c4cc(F)c5nc6n(c5c4)[C@H](C)CCC6)n3)nc2)CC1 is recorded as 0% (human advanced solid tumours; 200 mg, phase Ia monotherapy RECIST 1.1).
C[C@H](Oc1ccc(Br)cc1-c1ccon1)C(=O)O — result for “difference from placebo”: 0.573% (response latency; human, tibialis anterior muscle; 200 mg, 30 Hz+30 s).
C[C@H](NC(=O)c1c(C(F)F)nn(C)c1Oc1cccc(C(F)(F)F)c1)c1ccc(C(=O)O)cc1: “objective response rate” 0% (irRECIST; human, advanced tumours; 500 mg).
With FC(F)(F)Oc1cccc(-c2cnc3ccc(-c4ccncc4)nn23)c1 the tumour bioluminescence was 6.63e+10 photons/s and 2.43e+10 photons/s and 9.05e+10 photons/s and 5.24e+10 photons/s and 6.26e+10 photons/s and 2.24e+10 photons/s (bioluminescence imaging; mouse, MDA-MB-231-Luc xenograft; 10 mg/kg, day 21).
O=C(O)CNC(=O)Cc1ccccc1 gave a sarcomere length of 1.72 µm (ventricular cardiomyocytes, C57BL/6 mouse; dose not given, 0.1 s).
Under “patients with IPA above threshold”, CSCCNc1nc(SCCC(F)(F)F)nc2c1ncn2[C@@H]1O[C@H](COP(=O)(O)OP(=O)(O)C(Cl)(Cl)P(=O)(O)O)[C@@H](O)[C@H]1O is recorded as 7.7% (platelet aggregation, light transmittance aggregometry; human, platelet-rich plasma; dose not given, 30 min, IPA above 80 %, added: TRAP 5 µM; relative to: patients).
For O=C(CO)[C@@H](O)[C@H](O)COP(=O)(O)O, “z-scored log2 fold change” read 0.268 (binding, equilibrium dialysis LC-MS; 5 µM, thermostabilized A2AR-BRIL construct; relative to: no-protein control, direction not given).
CC(C)NCC(O)c1ccc(O)c(O)c1 (stereo not drawn) has a sarcomere length of 1.71 µm (ventricular cardiomyocytes, C57BL/6 mouse; dose not given, 0.112 s).
N=C(N)NCCC[C@H](NC(=O)[C@H](CCCNC(=N)N)NC(=O)[C@H](CCCCN)NC(=O)[C@H](CCC(N)=O)NC(=O)[C@H](CCCCN)NC(=O)[C@H](Cc1ccc(O)cc1)NC(=O)[C@@H](N)CCCCN)C(=O)N[C@@H](CO)C(=O)N[C@@H](Cc1ccc(O)cc1)C(=O)N[C@@H](CCCCN)C(=O)O — result for “median Schiff sensitivity score change”: -0.5 (air evaporative stimulus; dentin hypersensitivity patients; 5 µg/tooth single, day 22; relative to: baseline, direction not given).
For N[C@@H](Cc1cc(I)c(O)c(I)c1)C(=O)O, “z-scored log2 fold change” read 0.271 (binding, equilibrium dialysis LC-MS; 5 µM, thermostabilized A2AR-BRIL construct; relative to: no-protein control, direction not given).
COc1cc2cc(-c3ccc(CC(=O)Nc4cc(C(C)(C)C(F)(F)F)no4)cn3)cnc2cc1OC: “objective response rate” 10% (human RET-altered advanced solid tumours; 75 mg, phase I other tumours, RECIST 1.1).
For C[C@@H](O)CCOC(=O)C[C@@H](C)O, the plasma glucagon was 19 pM (human; oral drink, dose not given, 30 min post dose, median, all participants).
Cc1ccc([C@@H]2O[C@H](CO)[C@@H](O)[C@H](O)[C@H]2O)cc1Cc1ccc(-c2ccc(F)cc2)s1 — result for “change in fasting serum insulin”: -1.7 µU/mL (Japanese type 2 diabetes patients; 400 mg, day 17; relative to: day 1).
O=C(OC(C(F)(F)F)C(F)(F)F)N1CCN(Cc2cccc(Oc3ccccc3)c2)CC1 has a k3 of 3.27 min⁻¹ (PET blocking study; rhesus monkey, brain HIP; 0.1 mg/kg, compound pretreatment, added: [18F]T-401 tracer).
CCO[C@H]1CCN(Cc2c(OC)cc(C)c3[nH]ccc23)[C@H](c2ccc(C(=O)O)cc2)C1 — result for “C3d-positive type III RBCs”: -1.6% (PNH patients, blood; oral, 50 mg then 200 mg, week 4, mean absolute change; relative to: baseline).
With CN(CCOc1ccc(CC2SC(=O)NC2=O)cc1)c1ccccn1 (racemic) the BV/TV was 9.5 ± 1.3% (C57BL/6 mice, diet-induced obese, proximal tibia).
COc1ccc(-c2cncc(N[C@@H](C)c3cccc(NC(=O)c4cncc(C)c4)c3)n2)cc1OC — result for “delta delta Ct”: 0.321 (refers to: rno-miR-342-3p; rat SU5416/hypoxia model, lung; dose not given, unit not given; relative to: SU5416/hypoxia vehicle).
O=C[C@H](O)[C@H](O)[C@H](O)COP(=O)(O)O — result for “z-scored log2 fold change”: 0.268 (binding, equilibrium dialysis LC-MS; 5 µM, thermostabilized A2AR-BRIL construct; relative to: no-protein control, direction not given).
C[C@@H]1CCC[C@H](n2cnc(-c3cc(Cl)ccc3-n3cc(Cl)nn3)cc2=O)c2cc(ccn2)-c2c(cnn2C(F)F)NC1=O: “concentration for aPTT prolongation” 70 nM (cynomolgus monkey plasma; IC1.5× aPTT, STA-PTT reagent).
For O=P(O)(O)C(Cl)(Cl)P(=O)(O)O, the Iba1-positive area was 0.46% (immunostaining; mouse, sham-operated, hippocampal fissure; dose not given, day 1; relative to: total area).
O=C(O)COC(=O)Cc1ccccc1Nc1c(Cl)cccc1Cl has a Km of 5.9 µM (bioactivation, refers to: unknown glutathione adduct; human).
N#Cc1ccc2c(c1)[C@H]1CCCN(C(=O)c3ccc4[nH]cnc4c3)[C@H]1C2: “diastolic blood pressure change” 1.8 mmHg (human, Phase II trial; 20 mg once daily, day 28, adjusted mean; relative to: baseline).
CO[C@H]1C[C@@H]2CC[C@@H](C)[C@@](O)(O2)C(=O)C(=O)N2CCCC[C@H]2C(=O)O[C@H]([C@H](C)C[C@@H]2CC[C@@H](OC(=O)NCCOCCOCCOCCOCCOCCOCCOCCOCCC(=O)N3CCc4cc(Cn5nc(-c6ccc7oc(N)nc7c6)c6c(N)ncnc65)ccc4C3)[C@H](OC)C2)C[C@@H](O)[C@H](C)/C=C(\C)[C@@H](O)[C@@H](OC)C(=O)[C@H](C)C[C@H](C)/C=C/C=C/C=C/1C — result for “lowest active dose”: 6 mg (ctDNA molecular response, refers to: PI3K/mTOR pathway variants ctDNA; human, solid tumours; intravenous, dose not given, once weekly).
The radical scavenging of N#CCc1ccc(O)c(Cc2ccc(O)cc2)c1 is reported as 17.51 ± 0.13% (DPPH radical; 300 µg/mL).
For C[C@@H]1C[C@H]2[C@@H]3CCC4=CC(=O)C=C[C@]4(C)[C@@]3(F)[C@@H](O)C[C@]2(C)[C@@]1(O)C(=O)CO, “NIRF signal reduction” read 87% (mouse LPS-induced ALI, isolated lungs ex vivo; intratracheal, 2 µmol/kg, dosed 1 h after LPS; relative to: untreated ALI mice).

Excerpt of the above:
For O=C(O)Cc1ccc(O)cc1, “z-scored log2 fold change” read -0.184 (binding, equilibrium dialysis LC-MS; 5 µM, thermostabilized A2AR-BRIL construct; relative to: no-protein control, direction not given).
O=C[C@H](O)CO — result for “z-scored log2 fold change”: -0.0352 (binding, equilibrium dialysis LC-MS; 5 µM, thermostabilized A2AR-BRIL construct; relative to: no-protein control, direction not given).
For C[C@@H]1C[C@H]2[C@@H]3CCC4=CC(=O)C=C[C@]4(C)[C@@]3(F)[C@@H](O)C[C@]2(C)[C@@]1(O)C(=O)CO, “NIRF signal reduction” read 87% (mouse LPS-induced ALI, isolated lungs ex vivo; intratracheal, 2 µmol/kg, dosed 1 h after LPS; relative to: untreated ALI mice).
N#Cc1ccc2c(c1)[C@H]1CCCN(C(=O)c3ccc4[nH]cnc4c3)[C@H]1C2: “diastolic blood pressure change” 1.8 mmHg (human, Phase II trial; 20 mg once daily, day 28, adjusted mean; relative to: baseline).
Under “z-scored log2 fold change”, CC(C)(CO)[C@@H](O)C(=O)NCCC(=O)O is recorded as 0.169 (binding, equilibrium dialysis LC-MS; 5 µM, thermostabilized A2AR-BRIL construct; relative to: no-protein control, direction not given).
